Results from different studies.
Every numbered part comes from another study and shows a few of its results, in no order.

Sample 1
Target: Histone acetyltransferase KAT6A, winged helix 2, GST fusion (KAT6A, Homo sapiens, UniProt Q92794, residues 85-181)
Method: protein binding microarray
Molecule type: double-stranded DNA, one strand shown
Matrix: in vitro
Concentration: not given
Notes: 8-mer, flanks averaged, mean of 2 arrays, mostly near background
Reference: not given
Reading: higher = stronger binding
Construct (chain): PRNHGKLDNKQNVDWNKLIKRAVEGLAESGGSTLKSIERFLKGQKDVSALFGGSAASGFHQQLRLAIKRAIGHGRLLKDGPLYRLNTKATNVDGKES
Sequence | E-score
ACCAAAGC | 0.137
CAAAACAC | 0.0523
GAGAAAGA | 0.0396
AAGGGGTC | -0.209
CGGTCGAC | 0.209
ACAGTTTG | -0.0105
CCGGTTAG | -0.0415
ATCTCACG | -0.0948
CAAGAGTG | -0.219
GGACTCAA | -0.167
ACATACCA | -0.115
GACTCGTA | -0.143
AGTTTCCG | 0.139
GACGAGAA | 0.142
ATATGTAC | -0.166
AAGTCAAA | -0.0754
ATGCGGGA | 0.144
TGGGGCAA | -0.109
ATGCTTAG | 0.098
AACCGTGC | 0.13
ACTACGCA | 0.0173
CCCGGATC | 0.191
GAACATAA | -0.0689

Sample 2
Target: RNA binding protein fox-1 homolog 2, RRM domain, GST-SBP tag (RBFOX2, Homo sapiens, UniProt O43251-10, residues 100-194)
Method: RNA Bind-n-Seq
Molecule type: RNA
Matrix: in vitro
Concentration: 365 nM
Notes: natural RNA segment, single round, ends assumed
Reference: no-protein control
Reading: higher = stronger binding
Residues (chain): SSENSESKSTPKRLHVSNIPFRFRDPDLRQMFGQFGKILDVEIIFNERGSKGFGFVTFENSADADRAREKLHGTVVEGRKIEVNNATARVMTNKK
Sequence | RBNS enrichment (R)
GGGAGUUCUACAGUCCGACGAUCGCUGCAACAUUUUGAUUCCUGUUAAUUUUGUUCUUUAAUUAAAUGACUACUUAUUGCAGGAAAUUAACCCAGGCUUUACAUUUUCUUGUGGUUGGGAUGAGUGGUACUUUUGGAAUUCUCGGGUGCCAA | 0.427
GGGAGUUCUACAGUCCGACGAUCUGUGCGAUGGCAGAGCAGCAUCCAAGCAGAGAUCAGAUGUCCUCUUCAGUCUGUGGGCGGGCGAUUGUCAGUGGGAUUGGUUAAAAAGCUCUUACCAGAGCUGGCUGGCCUGGAAUUCUCGGGUGCCAA | 1.29
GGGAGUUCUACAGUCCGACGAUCAGCAUGGGGGGCAGGAGCCAGGGAGUCUAUUAGGUUCUAACCAACCUAGUUUUCAUUGUUGACAAGUGAGGCCAGGCUUCCACUCGACCAAAAGCUAAGGAUUGCCACCCUGGAAUUCUCGGGUGCCAA | 1.56
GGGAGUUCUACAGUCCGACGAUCGGUGGGGCGGGAACACACAAAUCCAGCCCCCUUUCUCCUGGCUCCCUGCUCUGGCCCUGCCCCAGAGCUGUGACCCUUGUCCUUUGACCCAGCCUCUCAUUUCCAUCUCUUGGAAUUCUCGGGUGCCAA | 0.412
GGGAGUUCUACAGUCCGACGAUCUCAAGAAUAUUUGAUUUCCUAUUGUGUGCAUGGGAGGUUUACAAAAGACAGACUGUCCCUAUGCUUGUGCAGCUUACAAUCUAUUUAACUAUUAGAGGCCCUGUGAGAUGUGGAAUUCUCGGGUGCCAA | 1.79
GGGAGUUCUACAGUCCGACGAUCAGAUAAUCUUAAUGACUAUUUUGGCAUUUAUAAAUAGAAAUGAUUAUGGACUUUGAUCUGCCAUACGGAGGUUCGGAACCUGGAGAACGGCUGUGAUAAGUAGGUUUUGAUGGAAUUCUCGGGUGCCAA | 0.51
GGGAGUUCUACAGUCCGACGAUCAGGCAGGAGGAGAAGCAUGAAGAGAAAACCUGUUUGAGAAGUUUUGUUUUGUUUUGUUUUGCUUUUUAAUAAUUUUAGCACACAUCUGCUGACUCUCCUUCAACAUCCUCUGGAAUUCUCGGGUGCCAA | 4.3
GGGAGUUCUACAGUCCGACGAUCGUGACUGAGGCUAUGGAAAAAGGGUUCUGCAAAUAGCAUUCUGGGAUUGUGGGGAGAAAUCCCAGGUCAGGCCACAGCUGCAUGUUGCAUUAAAUGUGUUCUCAUGUCGCUGGAAUUCUCGGGUGCCAA | 1.52
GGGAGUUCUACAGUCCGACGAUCAAUGUGAUAAAUCUUUUUGUAGUUCCUUGGAGGAUAGCUGAUAUCCCACUCCUUCGUUUUUCCUCUCAAAUCUCCUUGGUGACCUCAUUGACUGGGAGCAUGGCCAGGCAUGGAAUUCUCGGGUGCCAA | 8.21
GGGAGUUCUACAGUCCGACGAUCUAUGUCCGGGAUCUGGAUCAGAUUCUGGGGGCUCAGAAACGUCGGUUGCAUUGAGCUACUGGGGGUAGGAGUUCCAACAUUUAUGUCCAGAGCAACUUCCAGCAAGGCUGUGGAAUUCUCGGGUGCCAA | 0.271
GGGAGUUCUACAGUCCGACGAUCCACGUGGUAGGCUCCACACUGGGCCUCACAUGGAAUGGUUUCCUGCUCAGAUCCAGUCCACGGGUCCAAGGAUGCUGGAUCCAAGGACUUCUCUUCCACAGUGGCCGGCCUGGAAUUCUCGGGUGCCAA | 0.348
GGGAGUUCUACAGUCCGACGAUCAAAGAGGGGUACCUGUUUUCAUUUGAAAACUUUGAUUCAUGGAACCUUUAAAACUAAUCUCAGAAAAAUUUUUGGUGCCCAUGCAGCUGUAGUUGUUCACUGCUUUCCUGUGGAAUUCUCGGGUGCCAA | 0.345

Sample 3
Target: Centromere-binding protein 1, full length, His-tagged (CBF1, Saccharomyces cerevisiae, UniProt P17106, residues 1-351)
UniProt P17106, sequence (whole entry, looked up): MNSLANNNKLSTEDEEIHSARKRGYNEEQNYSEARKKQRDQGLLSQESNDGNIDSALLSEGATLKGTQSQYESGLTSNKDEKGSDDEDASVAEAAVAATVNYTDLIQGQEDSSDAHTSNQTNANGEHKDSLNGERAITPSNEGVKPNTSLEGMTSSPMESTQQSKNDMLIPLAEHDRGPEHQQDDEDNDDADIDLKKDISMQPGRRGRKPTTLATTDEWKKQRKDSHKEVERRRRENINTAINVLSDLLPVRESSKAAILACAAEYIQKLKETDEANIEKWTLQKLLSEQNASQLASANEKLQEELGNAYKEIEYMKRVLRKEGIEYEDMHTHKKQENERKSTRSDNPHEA
Method: competition protein-binding microarray
Molecule type: double-stranded DNA, one strand shown
Matrix: in vitro
Concentration: 2 µM
Notes: whole 60-bp probe, lowest competitor level
Added: Pho4 competitor, 0.05 µM
Reading: higher = stronger binding
Sequence | fluorescence intensity [a.u.]
CGCCATTGTATGAATCTCGTGCCAGTCCCTTTTTAAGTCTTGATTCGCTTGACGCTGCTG | 166
GACACTTCTTTGTATAACGTGACGGTGGTGTCGCCAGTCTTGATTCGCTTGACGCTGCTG | 411
CTTCTGTAAATTTGTTGGGTGGGTGGACGCGCCCCGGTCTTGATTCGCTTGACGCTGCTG | 81.2
CTTCTGTAAATTTGCGAAGTGGGTGGACGCGCCCCGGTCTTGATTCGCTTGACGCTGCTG | 68.3
TTGGTGGGGACTCTGCATGTGAAGAAGCTCAGTTCTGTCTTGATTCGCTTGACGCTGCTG | 86.7
CTTTTAACTTGCCTGCATGTGTGGAGTTACAAATTAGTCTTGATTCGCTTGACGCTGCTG | 88.9
GTCTTGTCTCATTGTCACCGGACTTTCCCCACTTCAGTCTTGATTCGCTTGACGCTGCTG | 102
TTCAACGCCCTGGCTGATGTGACGCTGTTGGTGGAGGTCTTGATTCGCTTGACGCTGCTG | 53.4
TGCCTCAGTTATGAGCACGTGCTCTGACCTGGCTGCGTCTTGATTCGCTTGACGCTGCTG | 2980
TTCCTTGGCGCTATTTTCGTGCATCCCGTAATTGCCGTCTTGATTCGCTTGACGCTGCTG | 83
CTATTGGTATATGTGTCCGTGACAAAGTAGTTAGTGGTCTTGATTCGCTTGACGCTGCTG | 159
TATGGCAAAAATCGAAACGTGGGTAAGTTTCGAGCCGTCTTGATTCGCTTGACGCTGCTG | 114
GTTTGATAATGTCAACACGTCATCATAGATGGTTGTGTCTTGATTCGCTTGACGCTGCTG | 87.7
CTAACGAAGGTTTGTCACGCAACTTACAAGCCAAGTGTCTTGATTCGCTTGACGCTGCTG | 115
CTAACGAAGGTTTGTTAAGTGGGTGACAAGCCAAGTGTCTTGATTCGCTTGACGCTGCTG | 65
TGAAAGAAGAACCATCACGTGGAACATGCTTTTTAGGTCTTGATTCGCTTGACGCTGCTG | 1650
GCGTTATCTCTATTAGACGTGCTTTTCAAGAATTGTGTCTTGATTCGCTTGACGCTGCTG | 88.9
TATATACATTGCCATCACGGGACTTAGCGTTAGTTCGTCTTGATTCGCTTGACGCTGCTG | 850
ACAAATACGAGCTTGCGCGTGTAGGTTAATCAGTTCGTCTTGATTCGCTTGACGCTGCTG | 83.8
AAATTACTAAGTTGTCACAGGACTTACCCCGTATGAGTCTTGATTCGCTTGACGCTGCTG | 133

Sample 4
Target: RING finger protein unkempt homolog, zinc fingers 1-6, GST-SBP tag (UNK, Homo sapiens, UniProt Q9C0B0, residues 30-357)
Method: RNA Bind-n-Seq
Molecule type: RNA
Matrix: in vitro
Concentration: not given
Notes: RNA with constant flanks, human and mouse sites, ends assumed
Reference: input RNA pool
Reading: higher = stronger binding
Target sequence (chain): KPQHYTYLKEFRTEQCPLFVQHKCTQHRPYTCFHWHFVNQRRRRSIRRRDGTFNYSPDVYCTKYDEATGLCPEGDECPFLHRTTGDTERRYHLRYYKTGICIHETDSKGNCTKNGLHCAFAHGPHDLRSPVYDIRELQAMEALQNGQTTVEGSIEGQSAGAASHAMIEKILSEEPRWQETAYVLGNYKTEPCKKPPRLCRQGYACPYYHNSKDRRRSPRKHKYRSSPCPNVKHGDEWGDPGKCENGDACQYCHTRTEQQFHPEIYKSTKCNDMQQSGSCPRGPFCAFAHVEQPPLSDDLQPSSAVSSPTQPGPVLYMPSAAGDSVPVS
Sequence | bound/input enrichment [ratio]
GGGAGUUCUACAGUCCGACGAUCUAAAUAUUAUAUAUAUCAAAAGCCAAAAUCUUUAUUUUUAUGCAUUUAGAAUAUUUUAAAUAGUUCUCAGAUAUUAAGAAGUUGUAUGAGUUGUAAGUAAUCUUGCCAAAGGUAAAGGGGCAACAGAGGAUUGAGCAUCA | 7.03
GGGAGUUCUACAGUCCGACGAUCAAGAGUGCAGACGACUUUAUAGAUAAGCACAUUGCUGAAUUAAUAUUUUACAUGGAAGAACUUAGAGCACAUGUGAGGAAAUACGGACCUGUAAUGCAGAGGUAUUACGUGCAGUACCUUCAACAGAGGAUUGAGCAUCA | 1.26
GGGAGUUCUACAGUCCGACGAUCGCAUGUUGGGUUUGCAGGACUGGCCCACACAGUCCCCUGCAGGUGGCAGCCCUCUUUUCUGUUUCUCGCUGUCAAGAGGGUGUAAGUAUUCCACCAGCCCGCUGAGUGUGCACGAAAUGUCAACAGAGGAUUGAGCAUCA | 0.0769
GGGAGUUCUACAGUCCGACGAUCCUCCUGCAGGACAUCGUCCUCCAUGUUUUUAAGUAUUUGCCUCUUCUUGACCGGGCUCAUGCUUCCCAAGUGUGCCGGAAUUGGAAUCAGGUAUUUCACAUGCCUGACUUGUGGCGAUGUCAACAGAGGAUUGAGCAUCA | 0.169
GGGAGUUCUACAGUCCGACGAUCAGAUAAGGGUUCUUGGUUUUUGUUUGUUUUCUCUACAUCAUUUCGUGUUUUUGUAUUCUGCACCAUUUUACAAAUGAAGAUGUGUUUGCAGUUAUUUUUUCCAGCUAUAAACCUAGAAUACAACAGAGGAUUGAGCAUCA | 0.335
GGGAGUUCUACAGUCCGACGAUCAACAGCUGCAGGCAGGAUGGUCCGUCCAUCCUGGAGCACAGACCGACAGGCAGAGGAAGCAGGAAGAACUGACAGACGAGGAGAAGGAGAUCAUCAACAGAGUGAUUGCUCGGGCAGAGACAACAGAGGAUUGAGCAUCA | 0.253
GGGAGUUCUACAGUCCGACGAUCUGCGUCAAUCCAGAAAUACAGUAUGUGAAGAUCAAAGAUGUGGCCAGGGGAAAAUUAUUCAUCUUAACGGAAGCCAGAUUAUCGGCCCUCUAUAAGCAAGAGAGCGACUAUGAGAUACUUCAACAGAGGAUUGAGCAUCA | 0.282

Sample 5
Target: Myc proto-oncogene protein, bHLH-zipper, MAX partner unstated (MYC, Homo sapiens, UniProt P01106, residues 368-449)
UniProt P01106, sequence (368-449, looked up): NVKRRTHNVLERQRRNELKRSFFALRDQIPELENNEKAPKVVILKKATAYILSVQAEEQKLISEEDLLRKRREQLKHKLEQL
Method: protein-binding microarray
Molecule type: double-stranded DNA, one strand shown
Matrix: in vitro
Concentration: not given
Notes: k-mer, scored over probes, only values ≥0.25
Reading: higher = stronger binding
Sequence | E-score
GCGCCACC | 0.299
ATGGCCAT | 0.291
CCGCCGCG | 0.252
CACGCGGA | 0.463
ATGCACTC | 0.279
CCCCTCCC | 0.347
AGCACGCC | 0.385
CCTCGTGA | 0.419
CATGTCCC | 0.277
GCACACAC | 0.284
CATGTGCC | 0.475
ACGTGGCG | 0.453
CGGGTGGC | 0.313
ACACGCAC | 0.382
ACCACCTG | 0.336
GCCACGAC | 0.292
ACGCTGCC | 0.282
CATCATGC | 0.272

Repeated from above (sample 1):
Sequence | E-score
CAAGAGTG | -0.219
GAACATAA | -0.0689
GAGAAAGA | 0.0396
ACAGTTTG | -0.0105
AGTTTCCG | 0.139
CCCGGATC | 0.191
TGGGGCAA | -0.109
GACGAGAA | 0.142
GACTCGTA | -0.143
AAGTCAAA | -0.0754
ACATACCA | -0.115
ACCAAAGC | 0.137
